Published values pooled from the literature.
A part holds a random share of what one study measured.

Block 1 — technique: protein binding microarray; molecule type: double-stranded DNA, one strand shown; medium: in vitro; tested at: not given; relative to: not given; direction: higher = stronger binding; measurement: E-score
Target: Histone acetyltransferase KAT6A, winged helix 1, GST fusion (KAT6A, Homo sapiens, UniProt Q92794, residues 1-85)
Notes: 8-mer, flanks averaged, mean of 2 arrays, mostly near background
Construct (chain): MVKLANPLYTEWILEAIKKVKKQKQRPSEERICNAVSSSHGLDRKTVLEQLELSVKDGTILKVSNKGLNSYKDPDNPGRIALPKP
Oligonucleotide = ACGTCCGA; value = 0.0687
Oligonucleotide = CCCGGTAG; value = 0.282
Oligonucleotide = CCCTGGCG; value = 0.123
Oligonucleotide = CATTACGC; value = 0.185
Oligonucleotide = ACCACCGA; value = 0.03
Oligonucleotide = ATAACCTC; value = -0.0883
Oligonucleotide = AACCTCTG; value = -0.107
Oligonucleotide = ATATCCAA; value = -0.179
Oligonucleotide = CGAAGCCA; value = -0.0722
Oligonucleotide = CGCTAATC; value = 0.136
Oligonucleotide = ACTTATCA; value = -0.209
Oligonucleotide = ACCATCGG; value = 0.0527
Oligonucleotide = AGTGCTAA; value = -0.00326
Oligonucleotide = CAAGCCGG; value = 0.167
Oligonucleotide = AGTTAACG; value = 0.0425
Oligonucleotide = AAAAGGAT; value = -0.294
Oligonucleotide = CCTTGAGA; value = -0.252
Oligonucleotide = ACATATGT; value = -0.0383
Oligonucleotide = TTTAAAAA; value = -0.127
Oligonucleotide = ACTTCCGA; value = 0.0134
Oligonucleotide = GAAAGGGC; value = -0.0412
Oligonucleotide = GGGATCCC; value = 0.166
Oligonucleotide = GAGACATC; value = -0.0466
Oligonucleotide = AAAACGTC; value = -0.116
Oligonucleotide = ATTTAGTG; value = -0.183

Block 2 — technique: RNA Bind-n-Seq; molecule type: RNA; medium: in vitro; tested at: 1 µM; notes: whole 134-nt RNA, ends assumed; with: 150 mM KCl; relative to: input library; direction: higher = stronger binding; measurement: log2 enrichment
Target: Ras GTPase-activating protein-binding protein 1, RRM domain (G3BP1, Homo sapiens, UniProt Q13283)
Sequence of UniProt Q13283 (whole entry, looked up): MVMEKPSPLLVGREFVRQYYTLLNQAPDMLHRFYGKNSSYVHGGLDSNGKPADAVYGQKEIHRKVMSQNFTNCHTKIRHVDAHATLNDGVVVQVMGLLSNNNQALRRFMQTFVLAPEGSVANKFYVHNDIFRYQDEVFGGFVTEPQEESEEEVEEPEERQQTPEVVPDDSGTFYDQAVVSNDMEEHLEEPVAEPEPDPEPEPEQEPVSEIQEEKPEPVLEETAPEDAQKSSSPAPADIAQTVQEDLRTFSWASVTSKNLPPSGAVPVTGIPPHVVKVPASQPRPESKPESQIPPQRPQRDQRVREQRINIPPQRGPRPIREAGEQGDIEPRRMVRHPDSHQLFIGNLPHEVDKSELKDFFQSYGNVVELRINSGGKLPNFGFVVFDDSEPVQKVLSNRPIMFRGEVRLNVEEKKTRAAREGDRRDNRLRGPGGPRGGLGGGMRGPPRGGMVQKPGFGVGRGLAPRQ
All sequences stand within: GGGAGUUCUACAGUCCGACGAUC … UGGAAUUCUCGGGUGUCAAGG
Oligonucleotide = UCAAGUCCUGUGCUACACAUCGUAUGUACCGAAUCGGAAAGGUUUGGAAAAAGGAAAGUAUUAUGUUACGCCGUUCGGAUCUGCACUUCC; value = -0.136
Oligonucleotide = UCAAGUCCUGUGCUACACAUCGUAUGUACCGAAUCGGGGAGGGGUGGGGUGGGGAAAGUAUUAUGUUACGCCGUUCGGAUCUGCACUUCC; value = 1.35
Oligonucleotide = UGUGCUACACAUCGUAUGUACCGAAUCGGGGUUUUUUUGGGGAAAAAGGGGUUUUUUUGGGGAAAGUAUUAUGUUACGCCGUUCGGAUCU; value = 1.15
Oligonucleotide = CACAGACAACACGCACCCACACAGACACAGAGGGAAGGGGUUGGGAUGGGGACAGGGUGCACAGCAGGGCCGGGUAGGACCCCAGCCCCU; value = -0.355
Oligonucleotide = AGUCCUGUGCUACACAUCGUAUGUACCGAAUCGGGUUUUUUUGGGAGGGUUUUUGGGAAAGUAUUAUGUUACGCCGUUCGGAUCUGCACU; value = 0.286
Oligonucleotide = UAACUUUAGAGGAGGAUCUGAUGGAUAUGGCAGUGGACGUGGAUUUGGGGAUGGCUAUAAUGGGUAUGGAGGAGGACCUGGAGGUUGCAA; value = -0.353
Oligonucleotide = AAGUCCUGUGCUACACAUCGUAUGUACCGAAUCAAACCCCCAAAUUUAAACCCAAAAAAGUAUUAUGUUACGCCGUUCGGAUCUGCACUU; value = -0.177
Oligonucleotide = AGUCCUGUGCUACACAUCGUAUGUACCGAAUCGGGAAAAGGGGAAAAGGAAAAGGGGAAAGUAUUAUGUUACGCCGUUCGGAUCUGCACU; value = 0.232
Oligonucleotide = UCCUCAAGUCCUGUGCUACACAUCGUAUGUACCGAAUCGGUGGGGUGGUGGGAAAGUAUUAUGUUACGCCGUUCGGAUCUGCACUUCCAG; value = -0.143

Block 3 — technique: RNA Bind-n-Seq; molecule type: RNA; medium: in vitro; tested at: not given; relative to: input RNA pool; direction: higher = stronger binding; measurement: bound/input enrichment
Target: RING finger protein unkempt homolog, zinc fingers 1-6, GST-SBP tag (UNK, Homo sapiens, UniProt Q9C0B0, residues 30-357)
Notes: RNA with constant flanks, human and mouse sites, ends assumed
All sequences stand within: GGGAGUUCUACAGUCCGACGAUC … CAACAGAGGAUUGAGCAUCA
Construct (chain): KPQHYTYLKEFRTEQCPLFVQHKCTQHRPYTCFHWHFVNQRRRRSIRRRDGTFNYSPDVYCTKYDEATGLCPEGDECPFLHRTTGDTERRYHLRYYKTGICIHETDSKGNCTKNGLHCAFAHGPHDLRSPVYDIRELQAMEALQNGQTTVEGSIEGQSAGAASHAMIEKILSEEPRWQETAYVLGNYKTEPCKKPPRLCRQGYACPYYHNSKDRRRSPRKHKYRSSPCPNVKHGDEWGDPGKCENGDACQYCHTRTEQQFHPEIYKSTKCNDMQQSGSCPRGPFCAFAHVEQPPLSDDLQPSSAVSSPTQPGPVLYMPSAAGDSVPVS
Oligonucleotide = UAGAACCCCAAUAUAAAAAAUAAAGUAAUGCAGACCUGGGCAGUUUGCAUUUUUUUUUUUUUUUUUUUUUGGUGGAAGAAGUCUCAGCGUCUCUUAGGACUGACUGUUCAAAGGCUCCUC; value = 0.881 ratio
Oligonucleotide = AUCUUACUCACAGAACCUCCUAUGAACCCAACCAAAAACAGAGAGAAGAUUGUAGAGGUAAUGUUUGAAACUUACCAGUUUUCCGGUGUAUAUGUAGCCAUCCAGGCAGUUCUGACUUUG; value = 0.327 ratio
Oligonucleotide = UCCUCACCAUCAAACCCGAAUGGAAACUUUAAUGUCGUCAUUAAAGAAGAGCCUCUAGAUGAUUAUGAUUAUGAACUUGGUGAAUGCCCAGAAGGGAUAACAGUGAAACAAGAAGAGACA; value = 0.731 ratio
Oligonucleotide = ACGCAGUGUCUGCUGGGGCUGCGCACGUUCGUGGCCUUCGCCGCCAAGCUCUGGAGCUUCUUCAUUUACCUUCUGCGGAGGCAGAUCCGCACGGUAAUUCAGUACCAAACUGUUCGAUAU; value = 0.0616 ratio
Oligonucleotide = CUCACUGAUCACCACAUCUGUGAGAUCAACGGACAGAACGUCAUUGGCUUGAAGGAUGCUCAGAUUGCAGAUAUACUGUCAACAGCUGGGACUGUGGUUACCAUCACAAUCAUGCCUACU; value = 0.0771 ratio
Oligonucleotide = UCUUUACGAACAUUAACAUCAAUUGUCCACUUGGAGAGAACUCCCAAACUCAGCAGUAUUAUUGACUGUACUGGAACUGCCUCCUACCAUGGAUUUUUGCCAGUGCUUGUAAGGAACUGU; value = 0.22 ratio
Oligonucleotide = AAAUAUUUAAACUUGCAUUUGAAUAUAAAAAAAAAUCUAUUUUUCUAGAACUUCAUAAGAUAACCACUUGAUUUUGUGAUUCCAAUUCUUUGUAACUGUCUCAGAGCAGCCCUACUAGCA; value = 1.64 ratio
Oligonucleotide = GUCAGAAAGCAUCAGCUUUUCUCGAUGGACCCAUUCAUCUAAUGAAAUAUGCCUGUACUAUUUUAAAAAGCUUUGUAUUUCGUCAUAGAAAAGUUCAUCCCCCCAGAAUGAAAAUGAGGA; value = 0.571 ratio

Block 4 — technique: protein-binding microarray; molecule type: double-stranded DNA, one strand shown; medium: in vitro; tested at: 2540 nM top; notes: 60-bp whole probe; with: salmon DNA 0.4 mg/ml; relative to: random background probes; direction: higher = stronger binding; measurement: fitted relative affinity; all sequences stand within: GCCTAGCAC … GTCTTGATTCGCTTGACGCTGCTG
Target: Interferon regulatory factor 3, full length, phosphomimetic (IRF3, Homo sapiens, UniProt Q14653, residues 1-427, S386D/S396D/S398D/S402D/T404D/S405D)
Target sequence (chain): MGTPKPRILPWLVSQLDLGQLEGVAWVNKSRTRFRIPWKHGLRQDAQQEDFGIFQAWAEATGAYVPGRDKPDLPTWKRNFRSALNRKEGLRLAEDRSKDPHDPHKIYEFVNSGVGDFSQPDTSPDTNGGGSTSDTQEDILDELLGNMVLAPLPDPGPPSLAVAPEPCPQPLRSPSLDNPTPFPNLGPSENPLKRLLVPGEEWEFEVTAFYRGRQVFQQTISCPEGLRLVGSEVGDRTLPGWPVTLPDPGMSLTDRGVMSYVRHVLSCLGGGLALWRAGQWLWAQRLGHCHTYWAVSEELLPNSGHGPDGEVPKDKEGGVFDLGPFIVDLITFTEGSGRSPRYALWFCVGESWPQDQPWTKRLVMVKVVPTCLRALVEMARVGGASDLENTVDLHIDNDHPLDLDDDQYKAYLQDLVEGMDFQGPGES
Oligonucleotide = GAGGTTTTCTAATGTTTTTTAGTGCTA; value = 1.02 z-score
Oligonucleotide = GACGATCTCAGTATCCAGACGTGCTAG; value = 1.49 z-score
Oligonucleotide = AAGCTTCTTTTTTATTCTAAAGTGCTA; value = 1.31 z-score
Oligonucleotide = GACGGTACCGGGACTGGGGACGTGCTA; value = -0.144 z-score
Oligonucleotide = GACGGTTTCGGGTCTGGGGACGTGCTA; value = 5.9 z-score
Oligonucleotide = GACGGTCTCCTTTTGCTGACGTGCTAG; value = 3.61 z-score
Oligonucleotide = AAACCTCACAGTTTGTAAATGTGCTAG; value = 0.28 z-score
Oligonucleotide = TCATCTGTCCCTCTGTGACTGTGCTAG; value = 0.688 z-score
Oligonucleotide = TTCGATATCGGGTATCGATTAGTGCTA; value = 0.786 z-score
Oligonucleotide = GACGGATTCGACTTTCGGGACGTGCTA; value = 1.29 z-score
Oligonucleotide = TCCTCTTTCTCTGCTACCCTTGTGCTA; value = 3.18 z-score
Oligonucleotide = AGTGTTTCCCCTATTTAAGAGTGCTAG; value = 2.9 z-score
Oligonucleotide = TCAGGACTCGGGTCTCCCACTGTGCTA; value = -0.358 z-score
Oligonucleotide = GACGGACTGATTCTCCTGACGTGCTAG; value = 0.284 z-score
Oligonucleotide = GACGGTATCGGAATCGGGACGTGCTAG; value = 4.51 z-score
Oligonucleotide = GACGGTTTCGGGTATCGAGACGTGCTA; value = 4.87 z-score
Oligonucleotide = TTAGGTATCGATTTTCGGTTAGTGCTA; value = 3.43 z-score
Oligonucleotide = TCTGTTGCCCGTATCTAGGTGTGCTAG; value = 0.565 z-score
Oligonucleotide = TCATATTTAGAACTTCTCACTGTGCTA; value = 0.704 z-score

Some of these lines once more (block 4):
Oligonucleotide = TTCGATATCGGGTATCGATTAGTGCTA; value = 0.786 z-score
Oligonucleotide = GACGGATTCGACTTTCGGGACGTGCTA; value = 1.29 z-score
Oligonucleotide = TCCTCTTTCTCTGCTACCCTTGTGCTA; value = 3.18 z-score
Oligonucleotide = AGTGTTTCCCCTATTTAAGAGTGCTAG; value = 2.9 z-score
Oligonucleotide = TCAGGACTCGGGTCTCCCACTGTGCTA; value = -0.358 z-score
Oligonucleotide = GACGGACTGATTCTCCTGACGTGCTAG; value = 0.284 z-score
Oligonucleotide = GACGGTATCGGAATCGGGACGTGCTAG; value = 4.51 z-score
Oligonucleotide = GACGGTTTCGGGTATCGAGACGTGCTA; value = 4.87 z-score
Oligonucleotide = TTAGGTATCGATTTTCGGTTAGTGCTA; value = 3.43 z-score
Oligonucleotide = TCTGTTGCCCGTATCTAGGTGTGCTAG; value = 0.565 z-score
